Experimental data gathered from unrelated publications.
Parts stem from different laboratories: compare values within a part only. Positions count from the first letter of the parent shown.

Set 1 — target: CCNB2, cyclin fold, Cln2 fusion (human); method: yeast growth competition, sequencing; sample: yeast; setting: weak parent motif; relative to: not given; reading: higher = stronger binding; quantity: normalised enrichment score
Starting sequence: CDC6 docking peptide (human); TLKGRRLVFDNQL; partner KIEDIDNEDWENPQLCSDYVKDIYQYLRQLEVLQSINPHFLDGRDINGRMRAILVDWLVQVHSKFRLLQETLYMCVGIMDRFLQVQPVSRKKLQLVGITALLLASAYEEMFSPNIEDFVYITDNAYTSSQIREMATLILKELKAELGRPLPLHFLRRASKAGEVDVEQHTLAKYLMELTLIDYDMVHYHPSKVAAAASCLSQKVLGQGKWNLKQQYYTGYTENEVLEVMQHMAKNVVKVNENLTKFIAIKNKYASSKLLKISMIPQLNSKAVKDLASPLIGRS
L7D: 0.257
F9I: 0.691
L7W: 0.741
F9A: 0.352
L2R: 1.11
N11A: 0.185
K3T: 0.25

Set 2 — method: competition protein-binding microarray; molecule type: double-stranded DNA, one strand shown; sample: in vitro; tested at: 2 µM; together with: Cbf1 competitor, 0.05 µM; reading: higher = stronger binding; quantity: fluorescence intensity
Target: Phosphate system positive regulatory protein PHO4, full length, GST-tagged (PHO4, Saccharomyces cerevisiae, UniProt P07270, residues 1-312)
Setting: whole 60-bp probe, lowest competitor level
Construct (chain): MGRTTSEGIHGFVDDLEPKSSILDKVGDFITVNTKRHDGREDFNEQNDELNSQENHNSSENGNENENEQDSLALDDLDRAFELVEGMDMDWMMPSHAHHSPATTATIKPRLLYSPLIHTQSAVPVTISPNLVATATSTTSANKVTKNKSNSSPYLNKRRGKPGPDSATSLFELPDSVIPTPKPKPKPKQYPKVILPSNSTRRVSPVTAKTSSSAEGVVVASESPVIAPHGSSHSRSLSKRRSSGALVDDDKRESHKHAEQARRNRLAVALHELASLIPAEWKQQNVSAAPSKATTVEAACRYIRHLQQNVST
CGGGGTTAAGTTTGCGGCGTGGGTGGCTTGCAGCAGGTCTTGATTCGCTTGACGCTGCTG: 8670 a.u.
CTAACGAAGGTTTGTCACAATACTTACAAGCCAAGTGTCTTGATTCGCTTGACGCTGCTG: 3710 a.u.
CGGGGTTAAGTTTGCTAGGTGGGTGGCTTGCAGCAGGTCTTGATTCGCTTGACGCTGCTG: 4640 a.u.
CTTTCCCGATCTTTTCACGTGGTGTTAGCACATTTGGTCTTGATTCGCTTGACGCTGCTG: 16400 a.u.
GATTGTGGAAAGAAGCATGTGGTTTTCAAAAATTGGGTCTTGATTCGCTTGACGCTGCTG: 9980 a.u.

Set 3 — method: universal PBM; molecule type: double-stranded DNA, one strand shown; sample: in vitro; tested at: 600 nM; reading: higher = stronger binding; quantity: E-score
Target: Sal-like protein 4, full length isoform A (SALL4, Homo sapiens, UniProt Q9UJQ4, residues 1-1053)
UniProt Q9UJQ4, sequence (whole entry, looked up): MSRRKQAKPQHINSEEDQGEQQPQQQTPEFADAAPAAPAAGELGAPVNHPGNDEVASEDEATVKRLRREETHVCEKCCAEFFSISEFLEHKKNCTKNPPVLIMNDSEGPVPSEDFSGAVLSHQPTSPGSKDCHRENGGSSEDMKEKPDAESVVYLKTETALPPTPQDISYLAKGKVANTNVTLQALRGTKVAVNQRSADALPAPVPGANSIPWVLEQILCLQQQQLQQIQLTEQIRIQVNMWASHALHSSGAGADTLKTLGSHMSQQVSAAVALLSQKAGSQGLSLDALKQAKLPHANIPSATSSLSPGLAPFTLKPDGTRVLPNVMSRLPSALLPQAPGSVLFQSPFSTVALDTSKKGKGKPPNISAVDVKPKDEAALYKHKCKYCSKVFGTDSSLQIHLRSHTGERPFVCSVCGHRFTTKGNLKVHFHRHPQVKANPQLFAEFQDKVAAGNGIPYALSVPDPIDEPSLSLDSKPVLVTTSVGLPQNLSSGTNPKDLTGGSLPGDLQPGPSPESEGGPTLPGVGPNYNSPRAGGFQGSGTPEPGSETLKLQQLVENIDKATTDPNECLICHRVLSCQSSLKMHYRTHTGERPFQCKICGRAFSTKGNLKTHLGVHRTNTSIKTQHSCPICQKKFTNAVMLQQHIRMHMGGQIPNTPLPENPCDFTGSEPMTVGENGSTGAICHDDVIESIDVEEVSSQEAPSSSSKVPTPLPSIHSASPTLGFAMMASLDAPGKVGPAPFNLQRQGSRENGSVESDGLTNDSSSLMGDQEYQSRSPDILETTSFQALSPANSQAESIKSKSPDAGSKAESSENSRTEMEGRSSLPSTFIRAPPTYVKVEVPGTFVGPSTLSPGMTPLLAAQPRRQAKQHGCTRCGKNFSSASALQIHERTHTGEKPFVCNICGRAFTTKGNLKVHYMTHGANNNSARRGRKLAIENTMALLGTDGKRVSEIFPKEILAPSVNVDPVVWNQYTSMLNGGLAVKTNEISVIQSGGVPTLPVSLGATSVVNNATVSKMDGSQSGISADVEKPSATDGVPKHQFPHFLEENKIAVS
Setting: 8-mer, flanks averaged, mean of replicates
ACGCCAGA: -0.154
CGCTGAAG: -0.291
AAGTATTC: 0.264
CCGCACGA: -0.112
ATTGAGTC: 0.00383
ACGAGACC: -0.19
AATCATGG: 0.169
AGTTGACA: 0.137

Other studies, line by line
PhoQ, residues 284 288 289 292 302 303 SCCLKL — fold induction (PhoP, residues 12 14 15 18 19 GQAIL (Escherichia coli, UniProt P23836); Sort-seq, refers to: YFP reporter; E. coli; PhoQ-PhoP variant library, together with: 10 µM Mg2+; relative to: high Mg2+ state, higher = stronger signaling): 9.06

Excerpt of the above (set 3):
ACGCCAGA: -0.154
ATTGAGTC: 0.00383
AATCATGG: 0.169
